Results pooled from the literature.
Parts stem from different laboratories: compare values within a part only.

Block 1
Target: PABPC1L2, full length, GST fusion (mouse, UniProt A0ABA7IW68)
Method: RNAcompete
Molecule type: RNA
Matrix: in vitro
Concentration: 20 nM
Notes: 7-mer, probes averaged, single round
Relative to: mean of 7-mers
Reading: higher = stronger binding
Target sequence (chain): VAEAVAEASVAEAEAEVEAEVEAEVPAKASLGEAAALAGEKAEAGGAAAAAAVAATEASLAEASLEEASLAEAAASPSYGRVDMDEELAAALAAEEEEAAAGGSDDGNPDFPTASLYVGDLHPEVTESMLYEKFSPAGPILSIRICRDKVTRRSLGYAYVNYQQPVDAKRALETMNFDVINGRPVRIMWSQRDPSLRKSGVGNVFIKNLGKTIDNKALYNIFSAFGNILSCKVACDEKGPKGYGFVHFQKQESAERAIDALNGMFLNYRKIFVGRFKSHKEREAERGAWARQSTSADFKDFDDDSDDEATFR
`AAAUAAU` has a 7-mer Z-score of 2.3.
The 7-mer Z-score of `UAAACUC` is reported as 0.14.
With `UACGCCC` the 7-mer Z-score was -0.389.
With `ACGUGAU` the 7-mer Z-score was -0.0772.

Block 2
Target: Sal-like protein 4, full length isoform B (SALL4, Homo sapiens, UniProt Q9UJQ4-2, residues 1-616)
Method: universal PBM
Molecule type: double-stranded DNA, one strand shown
Matrix: in vitro
Concentration: not given
Notes: 8-mer, flanks averaged, mean of replicates
Reading: higher = stronger binding
`CGCGCCCA` has an E-score of -0.314.
`AAATCTGC` has an E-score of 0.0855.
With `GACAGGAC` the E-score was -0.152.
For `CAAGGAGA`, the E-score was -0.0424.
The E-score of `CAAAAGGA` is reported as 0.13.

Block 3
Target: Interferon regulatory factor 7, full length, phosphomimetic (IRF7, Homo sapiens, UniProt Q92985, residues 1-503, S471D/S472D/S475D/S476D/S477D/S483D/S484D/S487D)
Method: protein-binding microarray
Molecule type: double-stranded DNA, one strand shown
Matrix: in vitro
Concentration: 2200 nM top
Notes: 60-bp whole probe
With: salmon DNA 0.4 mg/ml
Relative to: random background probes
Reading: higher = stronger binding
Residues (chain): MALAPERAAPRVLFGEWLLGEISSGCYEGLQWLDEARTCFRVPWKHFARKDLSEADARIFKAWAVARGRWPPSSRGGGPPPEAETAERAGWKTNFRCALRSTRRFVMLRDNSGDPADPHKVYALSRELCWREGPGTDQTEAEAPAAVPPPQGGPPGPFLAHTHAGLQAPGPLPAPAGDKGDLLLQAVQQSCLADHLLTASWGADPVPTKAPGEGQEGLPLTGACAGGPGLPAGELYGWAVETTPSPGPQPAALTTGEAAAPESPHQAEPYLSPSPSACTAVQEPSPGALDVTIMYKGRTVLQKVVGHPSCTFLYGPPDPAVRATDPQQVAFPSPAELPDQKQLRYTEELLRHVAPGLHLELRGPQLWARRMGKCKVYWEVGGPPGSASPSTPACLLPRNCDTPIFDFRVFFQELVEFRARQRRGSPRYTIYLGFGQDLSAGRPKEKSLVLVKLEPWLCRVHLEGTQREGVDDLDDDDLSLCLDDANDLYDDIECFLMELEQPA
Under “fitted relative affinity”, `GCCTAGCACTCATCTGTTCTTTTCAGACTGTGCTAGGTCTTGATTCGCTTGACGCTGCTG` is recorded as 1.7 z-score.
Under “fitted relative affinity”, `GCCTAGCACTCACCTCTCCATACTTCACTGTGCTAGGTCTTGATTCGCTTGACGCTGCTG` is recorded as 2.12 z-score.
For `GCCTAGCACGACGAAGTGAGACTGGAGACGTGCTAGGTCTTGATTCGCTTGACGCTGCTG`, “fitted relative affinity” read -0.351 z-score.
For `GCCTAGCACTCAGCTATCACTATTCTACTGTGCTAGGTCTTGATTCGCTTGACGCTGCTG`, “fitted relative affinity” read 0.966 z-score.

Mixed results
With `PhoQ, residues 284 288 289 292 302 303 AQGLTV` the fold induction was 1.16 (PhoP, residues 12 14 15 18 19 NMSFL (Escherichia coli, UniProt P23836); Sort-seq, measured: YFP reporter; E. coli; PhoQ-PhoP variant library, with: 10 µM Mg2+; relative to: high Mg2+ state, higher = stronger signaling).
